Experimental data gathered from unrelated publications.
Compare with care: the assays were run in different laboratories. Values joined by “and” are separate records of one study, mostly repeats; a detail may differ. Numbers after ± are the reported error.
EGLN1: Egl nine homolog 1 (EGLN1, Homo sapiens, UniProt Q9GZT9)
Sequence of UniProt Q9GZT9 (whole entry, looked up): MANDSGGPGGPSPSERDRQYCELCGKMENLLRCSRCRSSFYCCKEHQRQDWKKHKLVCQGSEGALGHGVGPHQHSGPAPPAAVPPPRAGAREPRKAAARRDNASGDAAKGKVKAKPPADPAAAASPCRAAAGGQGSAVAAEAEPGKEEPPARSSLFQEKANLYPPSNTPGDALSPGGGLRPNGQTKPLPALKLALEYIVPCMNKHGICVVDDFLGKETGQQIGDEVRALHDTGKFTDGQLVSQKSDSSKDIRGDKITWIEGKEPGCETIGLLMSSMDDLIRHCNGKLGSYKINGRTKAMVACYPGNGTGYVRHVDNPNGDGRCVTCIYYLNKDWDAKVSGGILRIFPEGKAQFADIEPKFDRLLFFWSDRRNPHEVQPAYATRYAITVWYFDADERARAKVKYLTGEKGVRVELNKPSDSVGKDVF
Kir3.1/Kir3.2: Kir3.1/Kir3.2 (Homo sapiens, UniProt P48051+P48549)
Sequence of UniProt P48051 (whole entry, looked up): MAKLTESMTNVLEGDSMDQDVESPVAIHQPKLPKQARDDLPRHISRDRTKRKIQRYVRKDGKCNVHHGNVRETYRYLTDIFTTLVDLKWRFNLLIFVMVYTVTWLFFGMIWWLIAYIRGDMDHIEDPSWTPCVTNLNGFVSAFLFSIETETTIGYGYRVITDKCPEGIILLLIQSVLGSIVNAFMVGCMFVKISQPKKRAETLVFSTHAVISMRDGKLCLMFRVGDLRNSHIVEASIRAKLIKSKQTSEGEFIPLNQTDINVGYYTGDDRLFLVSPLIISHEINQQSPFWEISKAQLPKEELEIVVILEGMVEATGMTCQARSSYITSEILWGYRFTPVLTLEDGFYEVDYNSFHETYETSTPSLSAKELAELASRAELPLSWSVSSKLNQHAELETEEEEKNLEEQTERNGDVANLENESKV
Sequence of UniProt P48549 (whole entry, looked up): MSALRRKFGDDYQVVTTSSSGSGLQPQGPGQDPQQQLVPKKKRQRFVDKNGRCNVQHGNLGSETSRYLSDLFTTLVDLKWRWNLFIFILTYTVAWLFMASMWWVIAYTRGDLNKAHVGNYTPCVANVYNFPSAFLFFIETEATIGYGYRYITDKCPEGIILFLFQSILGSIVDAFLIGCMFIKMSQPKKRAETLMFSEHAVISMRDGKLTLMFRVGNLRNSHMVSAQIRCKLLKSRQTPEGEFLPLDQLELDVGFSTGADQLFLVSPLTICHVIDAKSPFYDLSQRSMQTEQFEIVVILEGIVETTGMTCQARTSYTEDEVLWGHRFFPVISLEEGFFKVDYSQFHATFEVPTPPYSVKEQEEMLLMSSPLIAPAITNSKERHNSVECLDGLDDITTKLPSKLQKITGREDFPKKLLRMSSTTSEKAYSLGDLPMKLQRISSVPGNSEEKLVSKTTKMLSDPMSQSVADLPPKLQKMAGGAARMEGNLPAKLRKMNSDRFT
Ephx2: Bifunctional epoxide hydrolase 2 (Ephx2, Mus musculus, UniProt P34914)
Sequence of UniProt P34914 (whole entry, looked up): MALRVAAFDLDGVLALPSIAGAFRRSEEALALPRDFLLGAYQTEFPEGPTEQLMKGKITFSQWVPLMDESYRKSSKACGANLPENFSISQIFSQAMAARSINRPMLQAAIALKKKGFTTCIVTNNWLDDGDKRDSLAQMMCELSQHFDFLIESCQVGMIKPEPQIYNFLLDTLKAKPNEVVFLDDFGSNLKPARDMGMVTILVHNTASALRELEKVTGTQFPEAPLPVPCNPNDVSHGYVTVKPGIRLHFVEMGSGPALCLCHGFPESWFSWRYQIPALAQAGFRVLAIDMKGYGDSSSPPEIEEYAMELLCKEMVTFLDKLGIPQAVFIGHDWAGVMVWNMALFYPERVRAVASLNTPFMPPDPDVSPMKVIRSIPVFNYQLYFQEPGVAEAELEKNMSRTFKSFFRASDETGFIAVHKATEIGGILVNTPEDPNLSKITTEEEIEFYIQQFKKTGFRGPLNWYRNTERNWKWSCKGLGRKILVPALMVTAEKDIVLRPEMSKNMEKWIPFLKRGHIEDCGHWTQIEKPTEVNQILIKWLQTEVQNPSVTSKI
HDAC1: Histone deacetylase 1 (HDAC1, Homo sapiens, UniProt Q13547)
Sequence of UniProt Q13547 (whole entry, looked up): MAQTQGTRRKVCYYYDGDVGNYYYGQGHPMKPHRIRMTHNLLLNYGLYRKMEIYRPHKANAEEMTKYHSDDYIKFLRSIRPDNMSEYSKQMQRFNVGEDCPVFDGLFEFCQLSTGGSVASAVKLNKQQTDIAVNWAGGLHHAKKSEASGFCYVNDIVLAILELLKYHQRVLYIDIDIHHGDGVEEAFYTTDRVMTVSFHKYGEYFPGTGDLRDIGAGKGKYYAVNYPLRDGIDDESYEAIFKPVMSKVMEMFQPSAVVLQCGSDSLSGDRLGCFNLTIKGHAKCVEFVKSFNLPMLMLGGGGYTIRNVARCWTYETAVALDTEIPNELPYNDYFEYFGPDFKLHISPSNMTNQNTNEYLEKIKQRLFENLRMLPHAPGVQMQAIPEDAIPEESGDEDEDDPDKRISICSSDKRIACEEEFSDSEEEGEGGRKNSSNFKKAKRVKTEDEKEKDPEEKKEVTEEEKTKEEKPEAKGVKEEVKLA
BACE1: Beta-secretase 1 (BACE1, Homo sapiens, UniProt P56817)
Sequence of UniProt P56817 (whole entry, looked up): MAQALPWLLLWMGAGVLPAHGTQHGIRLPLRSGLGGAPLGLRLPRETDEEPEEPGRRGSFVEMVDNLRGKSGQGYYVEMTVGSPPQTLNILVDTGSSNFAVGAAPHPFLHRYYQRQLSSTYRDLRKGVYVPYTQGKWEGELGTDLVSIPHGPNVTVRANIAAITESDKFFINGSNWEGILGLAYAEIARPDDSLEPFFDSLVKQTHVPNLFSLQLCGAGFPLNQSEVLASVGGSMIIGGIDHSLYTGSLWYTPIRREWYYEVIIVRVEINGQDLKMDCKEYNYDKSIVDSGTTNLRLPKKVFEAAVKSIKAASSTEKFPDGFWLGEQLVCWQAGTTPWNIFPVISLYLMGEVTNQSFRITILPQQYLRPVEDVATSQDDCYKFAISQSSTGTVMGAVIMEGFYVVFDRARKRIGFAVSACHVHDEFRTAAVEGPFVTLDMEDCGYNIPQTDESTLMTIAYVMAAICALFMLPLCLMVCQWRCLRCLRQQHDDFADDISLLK
Grik2: Glutamate receptor ionotropic, kainate 2 (Grik2, Rattus norvegicus, UniProt P42260)
Sequence of UniProt P31391 (whole entry, looked up): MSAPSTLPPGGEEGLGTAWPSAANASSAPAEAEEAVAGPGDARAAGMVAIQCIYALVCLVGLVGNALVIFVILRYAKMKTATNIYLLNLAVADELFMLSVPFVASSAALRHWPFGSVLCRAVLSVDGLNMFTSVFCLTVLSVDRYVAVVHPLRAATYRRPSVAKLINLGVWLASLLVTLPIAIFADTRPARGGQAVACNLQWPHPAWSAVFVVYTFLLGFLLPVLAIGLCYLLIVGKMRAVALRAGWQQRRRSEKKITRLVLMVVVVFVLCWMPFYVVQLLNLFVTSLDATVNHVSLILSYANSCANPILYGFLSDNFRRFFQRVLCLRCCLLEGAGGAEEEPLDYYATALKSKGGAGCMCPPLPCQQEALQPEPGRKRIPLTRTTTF
Sequence of UniProt P42260 (whole entry, looked up): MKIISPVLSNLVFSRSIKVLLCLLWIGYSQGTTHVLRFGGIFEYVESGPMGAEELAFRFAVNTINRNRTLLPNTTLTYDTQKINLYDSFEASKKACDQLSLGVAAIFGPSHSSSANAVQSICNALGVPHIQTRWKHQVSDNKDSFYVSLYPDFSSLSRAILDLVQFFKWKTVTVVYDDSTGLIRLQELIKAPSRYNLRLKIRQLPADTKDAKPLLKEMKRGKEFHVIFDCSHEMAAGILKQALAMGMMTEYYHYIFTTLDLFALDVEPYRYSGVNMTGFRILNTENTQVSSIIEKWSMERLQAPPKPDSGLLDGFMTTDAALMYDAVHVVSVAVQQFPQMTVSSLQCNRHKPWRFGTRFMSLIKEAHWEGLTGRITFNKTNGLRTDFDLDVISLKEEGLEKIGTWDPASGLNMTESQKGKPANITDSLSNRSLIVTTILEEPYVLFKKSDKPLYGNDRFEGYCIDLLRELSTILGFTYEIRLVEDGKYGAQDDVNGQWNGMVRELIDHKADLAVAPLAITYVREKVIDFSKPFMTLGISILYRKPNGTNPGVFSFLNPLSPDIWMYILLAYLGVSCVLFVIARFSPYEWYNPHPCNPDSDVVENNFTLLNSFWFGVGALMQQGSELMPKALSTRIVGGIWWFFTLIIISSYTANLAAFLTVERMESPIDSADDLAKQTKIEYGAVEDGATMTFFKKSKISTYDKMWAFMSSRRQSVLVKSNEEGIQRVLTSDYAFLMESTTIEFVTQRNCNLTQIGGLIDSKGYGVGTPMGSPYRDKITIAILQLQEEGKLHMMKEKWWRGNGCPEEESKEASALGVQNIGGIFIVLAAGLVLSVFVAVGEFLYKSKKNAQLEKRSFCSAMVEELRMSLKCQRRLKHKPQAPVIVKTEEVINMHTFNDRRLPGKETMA
Sequence of UniProt Q16820 (whole entry, looked up): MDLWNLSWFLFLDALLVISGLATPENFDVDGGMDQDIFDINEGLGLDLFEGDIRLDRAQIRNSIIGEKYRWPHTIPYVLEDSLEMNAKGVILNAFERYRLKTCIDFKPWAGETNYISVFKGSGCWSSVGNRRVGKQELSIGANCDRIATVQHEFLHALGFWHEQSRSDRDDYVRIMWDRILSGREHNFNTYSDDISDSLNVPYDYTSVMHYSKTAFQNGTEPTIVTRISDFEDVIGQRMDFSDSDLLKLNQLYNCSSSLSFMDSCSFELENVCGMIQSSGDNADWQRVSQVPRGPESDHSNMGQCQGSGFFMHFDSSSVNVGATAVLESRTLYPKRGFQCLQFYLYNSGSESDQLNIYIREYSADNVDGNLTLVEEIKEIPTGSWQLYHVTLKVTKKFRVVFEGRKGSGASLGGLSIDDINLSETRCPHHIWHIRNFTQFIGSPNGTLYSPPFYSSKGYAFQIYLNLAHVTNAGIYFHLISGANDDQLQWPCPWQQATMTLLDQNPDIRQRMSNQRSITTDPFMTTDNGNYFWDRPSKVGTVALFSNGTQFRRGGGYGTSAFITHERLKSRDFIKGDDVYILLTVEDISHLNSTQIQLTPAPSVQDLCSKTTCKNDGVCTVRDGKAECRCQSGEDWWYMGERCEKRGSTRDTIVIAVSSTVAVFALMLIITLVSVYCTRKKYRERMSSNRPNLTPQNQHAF

Substance	target	test	system	conditions	IC50
O=C1Nc2ccc(I)cc2/C1=C/c1cc(Br)c(O)c(Br)c1	Casein kinase II subunit alpha (CSNK2A1, Homo sapiens, UniProt P68400)	enzyme activity, inhibitor			0.129 µM
O=C(O)/C=C\C(=O)NNC(=O)c1ccccn1	EGLN1	inhibitor, AlphaScreen		bimodal curve, rough estimate, with: 2 µM 2-oxoglutarate	> 300 µM
CC(C)c1ccc(OCC(O)Cn2c(=N)n(Cc3ccccc3)c3ccccc32)cc1 (stereo not drawn)	Kir3.1/Kir3.2	ion flux			3.37 µM
O=C(N1CCCCC1c1ccccc1)n1cc(-c2ccc(-c3cccc(CO)c3)cc2)nn1 (stereo not drawn)	Monoacylglycerol lipase ABHD6 (Abhd6, Mus musculus, UniProt Q8R2Y0)	enzyme activity, inhibitor			~0.001 µM
CC(C)NCc1ccc(C[C@@H]2NC(=O)[C@H](N(C)C(=O)c3ccc4ccccc4c3)NC(=O)[C@H](Cc3ccccc3)NC(=O)[C@H](N)CSSC[C@@H](C(=O)N[C@@H](Cc3ccc4ccccc4c3)C(N)=O)NC(=O)[C@H](Cc3ccccc3)NC2=O)cc1	Somatostatin receptor type 4 (SSTR4, Homo sapiens, UniProt P31391)	ligand displacement, radioligand		cell membranes	0.214 µM and 0.535 µM
C[C@@H](CC(=O)NCc1cccc2ccccc12)NC(=O)[C@H](CC(=O)NC(C)(C)C)NC(=O)CCc1ccccc1	Proteasome component C5/PSMB8 (Homo sapiens, UniProt P20618+P28062)	chymotrypsin-like activity, inhibitor		with: ac-ANW-AMC	0.057 ± 0.012 µM
Cc1cc(C(=O)N2CCC[C@H](C(=O)NCCCCCCC(=O)NO)C2)ccc1NC(=O)N[C@@]12C[C@@H]3C[C@@](C)(C[C@@](C)(C3)C1)C2	Ephx2	enzyme activity, inhibitor, fluorescence			0.001 µM
CCOC(=O)C1=C(O)C(=O)N(Cc2ccccc2)C1	Aldo-keto reductase family 1 member B10 (AKR1B10, Homo sapiens, UniProt O60218)	enzyme activity, inhibitor			12 µM
O=C(O)c1cccnc1C(=O)O	Lysine-specific demethylase 4E (KDM4E, Homo sapiens, UniProt B2RXH2)	inhibitor, AlphaScreen		0.1% DMSO, with: 30 nM biotin-H3K9me3 peptide	> 100 µM
Cc1nc2ccc(F)cc2n1Cc1ccc(C(=O)NO)cc1	HDAC1	enzyme activity, inhibitor			2.92 ± 0.01 µM
O=S(=O)(c1cc(C(=S)Nc2cc(F)c(F)c(F)c2)c(Cl)cc1Cl)N1CCOCC1	Lysophosphatidic acid receptor 5 (LPAR5, Homo sapiens, UniProt Q9H1C0)	Ca2+ mobilization, antagonist	B103	with: LPA at EC50	> 100 µM
COc1cc(/C=C/C(C)=N/O)ccc1OCC(=O)Nc1ccc(C)cc1	Peroxisome proliferator-activated receptor gamma (PPARG, Homo sapiens, UniProt P37231)	ligand displacement, TR-FRET			17.3 µM
N#Cc1cccc(-c2ccc(Cn3cccc(O)c3=S)cc2)c1	HDAC1	enzyme activity, inhibitor, SAMDI mass spectrometry			> 10 µM
COC(=O)C(Cc1ccc(CCCC(=O)NCCC(=O)Nc2ccc3nc(C)sc3c2)cc1)C(=O)O (stereo not drawn)	L-lactate dehydrogenase A chain (LDHA, Homo sapiens, UniProt P00338)	inhibitor, NADH fluorescence		NADH competition, with: 1440 µM pyruvate, 40 µM NADH	4.8 ± 1 µM
CCCCC[C@H](CC(=O)NO)C(=O)N[C@H](C(=O)N1CCC[C@H]1CO)C(C)C	Meprin A subunit beta (MEP1B, Homo sapiens, UniProt Q16820)	enzyme activity, inhibitor, FRET			7.7 µM and 6.2 µM
CC(C)(C)c1ccc(O)c(O)c1	EGLN1	ODDD peptide hydroxylation, inhibitor, MALDI-TOF MS		pH 7.00, 37.0 °C, with: 2-oxoglutarate 10 µM	30 µM
N=c1n(Cc2ccc(Cl)cc2)c2ccccc2n1CC(O)COc1ccc(Cl)cc1 (stereo not drawn)	Kir3.1/Kir3.2	ion flux			3.35 µM
CC(C)COc1cccc(CC(=O)N2CCNc3nc(C(F)(F)F)ccc3[C@H]2CC(=O)O)c1	Neuromedin-B receptor (NMBR, Homo sapiens, UniProt P28336)	ligand displacement, radioligand			> 3 µM
O=C1NC2=C(C(=O)N(c3ccc(F)cc3)C2)C(c2ccccc2O)N1 (stereo not drawn)	Intestinal-type alkaline phosphatase (ALPI, Bos taurus, UniProt P19111)	enzyme activity, inhibitor, absorbance		pH 9.5	6.54 µM and 2.5 µM
NCCC(Oc1ccc(C(F)(F)F)cc1)c1ccccc1 (stereo not drawn)	Sodium-dependent serotonin transporter (Slc6a4, Mus musculus, UniProt Q60857)	[3H]5-HT uptake	brain synaptosomes	10 min, pH 7.4, 37 °C, wild type, with: [3H]5-HT 100 nM	0.16 µM
Fc1ccccc1F	Neuronal acetylcholine receptor; alpha4/beta2 (Homo sapiens, UniProt P17787+P43681)	ion current, inhibitor, two-electrode voltage clamp	Xenopus oocytes	with: ACh 1 mM	0.00091 atm
O=c1cc(CO)occ1O	EGLN1	ODDD peptide hydroxylation, inhibitor, MALDI-TOF MS		pH 7.00, 37.0 °C, with: 2-oxoglutarate 10 µM	400 µM
Cn1c(=N)n(CC(O)COc2ccc(C(F)(F)F)cc2)c2ccccc21 (stereo not drawn)	Kir3.1/Kir3.2	ion flux			2.87 µM
Tannic acid	mRNA triphosphatase Cet1 (Trypanosoma brucei brucei, UniProt Q582T2)	enzyme activity, inhibitor, Transcreener ADP FP		3 h, with: 50 µM ATP	0.06 µM
C[C@]12C[C@@H]3C[C@](C)(C1)C[C@@](NC(=O)Nc1ccc(C(=O)N4CCC[C@H](C(=O)NCCCCCCC(=O)NO)C4)cc1F)(C3)C2	Ephx2	enzyme activity, inhibitor, fluorescence			0.001 µM
CCCCc1ccc(OCC(=O)N(Cc2nc(-c3cnccn3)no2)C(C)C)cc1	PSMB5 (Oryctolagus cuniculus, UniProt G1T4Q9)	chymotrypsin-like activity		1 h, 37 °C, with: Suc-LLVY-AMC 20 µM	~0.1 µM

Substance	target	test	system	conditions	IC50
CCCCCCCCCCCCCC(=S)NCCCCC(NC(=O)OCc1ccccc1)C(=O)Nc1ccccc1 (stereo not drawn)	NAD-dependent protein deacylase sirtuin-6 (SIRT6, Homo sapiens, UniProt Q8N6T7)	enzyme activity, inhibitor		with preincubation	> 200 µM
N=c1n(Cc2ccccc2)c2ccccc2n1CC(O)COc1ccc(Cl)cc1 (stereo not drawn)	Kir3.1/Kir3.2	ion flux			2.9 µM
COc1cc2c(cc1OC)-c1cc3ccc4c(c3c[n+]1CC2)OCO4	Cytochrome P450 2E1 (Cyp2e1, Rattus norvegicus, UniProt P05182)	inhibitor			> 100 µM
CCN(c1ccccc1)S(=O)(=O)C1CC2OC1C(c1ccc(O)cc1)=C2c1ccc(O)cc1 (stereo not drawn)	Estrogen receptor beta (ESR2, Homo sapiens, UniProt Q92731)	reporter gene, antagonist, luciferase			0.33 µM
Clc1ccc(CN2CCCN(Cc3ccc(Cl)cc3)C2c2cc3ccccc3c3ccccc23)cc1	BACE1	enzyme activity, inhibitor, FRET		pH 4.5	40 µM
O=C(O)c1cccc(-n2c(/C=C/c3cccc([N+](=O)[O-])c3)nc3ccccc3c2=O)c1	Grik2	ion current, inhibitor, two-electrode voltage clamp	Xenopus oocytes	concanavalin A pretreatment, with: 100 µM glutamate	> 300 µM
O=C(OC(C(F)(F)F)C(F)(F)F)N1Cc2ccc(OCCN3CCCCC3)cc2C1	Monoacylglycerol lipase ABHD6 (ABHD6, Homo sapiens, UniProt Q9BV23)	enzyme activity, inhibitor, fluorescence substrate			0.0119 ± 0.0011 µM
C=C(C)CCOP(=O)(O)OP(=O)(O)OP(=O)(O)OC[C@H]1O[C@@H](n2cnc3c(N)ncnc32)[C@H](O)[C@@H]1O	Serine/threonine-protein kinase PLK1 (PLK1, Homo sapiens, UniProt P53350)	enzyme activity, inhibitor, HotSpot kinase		with: ATP 1 µM	2.6 µM
O=C1CSC2(CCN(CCCN3c4ccccc4Sc4ccc(Cl)cc43)CC2)N1	BACE1	inhibitor, FRET		pH 4.5	6.6 ± 0.3 µM
C[C@H](CCC(=O)O)[C@H]1CC[C@H]2[C@@H]3CC[C@@H]4C[C@H](OC(=O)CCCCCC(=O)O)CC[C@]4(C)[C@H]3CC[C@]12C	human 20S proteasome	chymotrypsin-like activity, inhibitor		with: PA28	> 10 µM
C/C(=C\C(=O)Nc1ccccc1C(=O)O)c1ccc2ccccc2c1	Telomerase reverse transcriptase (TERT, Homo sapiens, UniProt O14746)	enzyme activity, inhibitor			~1 µM
CCCCCCCCC1CCC(=O)O1 (stereo not drawn)	Liver carboxylesterase (Sus scrofa, UniProt Q29550)	enzyme activity, inhibitor		with preincubation	96 µM
O=C(O)c1ccccc1-n1c(/C=C/c2cccc([N+](=O)[O-])c2)nc2ccccc2c1=O	Grik2	ion current, inhibitor, two-electrode voltage clamp	Xenopus oocytes	concanavalin A pretreatment, with: 100 µM glutamate	> 300 µM
Oc1ccc[nH]c1=S	HDAC1	enzyme activity, inhibitor, SAMDI mass spectrometry			> 10 µM
Cc1ncc(C(=O)Nc2ccc(CN3CCN(C)CC3)c(C(F)(F)F)c2)cc1C#Cc1cnc(N)c2ncccc12	Breakpoint cluster region protein/Tyrosine-protein kinase ABL1 (Homo sapiens, UniProt P00519+P11274)				0.0109 ± 0.0011 µM
CC(C)C[C@H](NC(=O)N1CCOCC1)C(=O)N[C@H](/C=C/S(=O)(=O)c1ccccc1)CCc1ccccc1	Cathepsin B (CTSB, Bos taurus, UniProt P07688)	enzyme activity, inhibitor, fluorescence		pH 5.5, with preincubation	1.12 µM
NS(=O)(=O)c1ccc(N2N=C(C(F)(F)F)C[C@@H]2c2ccc(F)cc2F)cc1	Cyclooxygenase-2 (Canis lupus familiaris, UniProt Q8SPQ9)	PGE2 formation, inhibitor	dog whole blood	24 h, 37 °C, with: LPS	> 30 µM
COc1cccc(CNC(=O)C#Cc2cn(Cc3ccc(C(=O)O)cc3)c(=O)[nH]c2=O)c1	Collagenase 3 (MMP13, Homo sapiens, UniProt P45452)	enzyme activity, inhibitor			0.0109 µM
Cc1ccc(-c2nnc3sc(-c4ccc(C(C)(C)C)cc4)nn23)cc1	Serine/threonine-protein kinase pim-1 (PIM1, Homo sapiens, UniProt P11309)	kinase activity, inhibitor, ADP-Glo			≤ 7.5 µM
CC(=O)N[C@H]1[C@@H](O[C@H]2[C@H](O)[C@@H](O)[C@H](O[C@H]3[C@H](O)[C@@H](NC(C)=O)[C@@H](OCCCCCN)O[C@@H]3COS(=O)(=O)O)O[C@H]2C(=O)O)O[C@H](COS(=O)(=O)O)[C@@H](O[C@@H]2O[C@@H](C(=O)O)[C@@H](O)[C@H](O)[C@H]2O)[C@@H]1O	BACE1	enzyme activity, inhibitor, FRET		pH 4.5	32 µM
COc1cc(/C=C/C(=O)CC(=O)/C=C/c2ccc(O)c(OC)c2)ccc1O	mushroom tyrosinase	inhibitor		with: L-DOPA	> 2000 µM
Cc1cccc(C(=O)N2NCC(O)c3ccccc32)c1 (stereo not drawn)	Neutrophil elastase (ELANE, Homo sapiens, UniProt P08246)	enzyme activity, inhibitor, fluorogenic substrate			> 50 µM
O=c1cc(N2CCOCC2)oc2c(OCc3cccnc3)cccc12	Phosphatidylinositol 4,5-bisphosphate 3-kinase catalytic subunit alpha isoform (PIK3CA, Homo sapiens, UniProt P42336, H855E)	enzyme activity, inhibitor			4.1 µM
COc1ccc(C(Nc2ccccn2)c2oc(CO)cc(=O)c2O)cc1 (stereo not drawn)	Signal transducer and activator of transcription 3, phosphorylated homodimer (STAT3, Homo sapiens, UniProt P40763)	DNA binding, EMSA			30 to 50 µM
COC(=O)C1=C(C)NC(C)=C(C(=O)OCCN(C)Cc2ccccc2)C1c1cccc([N+](=O)[O-])c1 (stereo not drawn)	Multidrug resistance-associated protein 1 (ABCC1, Homo sapiens, UniProt P33527)	substrate efflux, inhibitor, flow cytometry	ABCC1-overexpressing SupT1-Vin cells	with: BODIPY-FL-histamine 500 nM	1.2 ± 0.9 µM

Excerpt of the above:
Substance	target	test	system	conditions	IC50
Fc1ccccc1F	Neuronal acetylcholine receptor; alpha4/beta2 (Homo sapiens, UniProt P17787+P43681)	ion current, inhibitor, two-electrode voltage clamp	Xenopus oocytes	with: ACh 1 mM	0.00091 atm
COc1cccc(CNC(=O)C#Cc2cn(Cc3ccc(C(=O)O)cc3)c(=O)[nH]c2=O)c1	Collagenase 3 (MMP13, Homo sapiens, UniProt P45452)	enzyme activity, inhibitor			0.0109 µM
O=C1CSC2(CCN(CCCN3c4ccccc4Sc4ccc(Cl)cc43)CC2)N1	BACE1	inhibitor, FRET		pH 4.5	6.6 ± 0.3 µM
COC(=O)C(Cc1ccc(CCCC(=O)NCCC(=O)Nc2ccc3nc(C)sc3c2)cc1)C(=O)O (stereo not drawn)	L-lactate dehydrogenase A chain (LDHA, Homo sapiens, UniProt P00338)	inhibitor, NADH fluorescence		NADH competition, with: 1440 µM pyruvate, 40 µM NADH	4.8 ± 1 µM
NCCC(Oc1ccc(C(F)(F)F)cc1)c1ccccc1 (stereo not drawn)	Sodium-dependent serotonin transporter (Slc6a4, Mus musculus, UniProt Q60857)	[3H]5-HT uptake	brain synaptosomes	10 min, pH 7.4, 37 °C, wild type, with: [3H]5-HT 100 nM	0.16 µM
CCCCc1ccc(OCC(=O)N(Cc2nc(-c3cnccn3)no2)C(C)C)cc1	PSMB5 (Oryctolagus cuniculus, UniProt G1T4Q9)	chymotrypsin-like activity		1 h, 37 °C, with: Suc-LLVY-AMC 20 µM	~0.1 µM
Cc1cccc(C(=O)N2NCC(O)c3ccccc32)c1 (stereo not drawn)	Neutrophil elastase (ELANE, Homo sapiens, UniProt P08246)	enzyme activity, inhibitor, fluorogenic substrate			> 50 µM
